Experimental data gathered from unrelated publications.
Protocols differ between the studies behind these lines. “And” joins repeats or separate records; there may be more than shown. ± gives the spread as reported.
TDP1: Tyrosyl-DNA phosphodiesterase 1 (TDP1, Homo sapiens, UniProt Q9NUW8)
Chain of UniProt Q9NUW8 (whole entry, looked up): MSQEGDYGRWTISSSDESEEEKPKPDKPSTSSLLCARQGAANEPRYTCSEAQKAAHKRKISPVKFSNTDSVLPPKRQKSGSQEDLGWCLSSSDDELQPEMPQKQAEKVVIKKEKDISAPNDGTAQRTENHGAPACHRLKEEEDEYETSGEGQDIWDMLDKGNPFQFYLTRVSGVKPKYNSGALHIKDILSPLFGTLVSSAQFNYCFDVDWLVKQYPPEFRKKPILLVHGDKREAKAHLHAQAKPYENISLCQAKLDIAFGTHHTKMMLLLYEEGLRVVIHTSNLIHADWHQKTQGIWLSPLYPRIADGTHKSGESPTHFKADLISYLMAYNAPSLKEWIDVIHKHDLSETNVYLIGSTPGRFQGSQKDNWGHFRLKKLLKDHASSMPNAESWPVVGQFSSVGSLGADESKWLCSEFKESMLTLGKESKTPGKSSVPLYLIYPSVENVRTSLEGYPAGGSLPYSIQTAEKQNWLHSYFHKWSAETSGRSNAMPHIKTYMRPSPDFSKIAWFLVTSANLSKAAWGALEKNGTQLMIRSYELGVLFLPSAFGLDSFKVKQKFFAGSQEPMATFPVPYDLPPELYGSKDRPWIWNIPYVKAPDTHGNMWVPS

Compound	target	assay	test system	conditions	scale	endpoint	value
NCCOc1cc(NC(=O)c2cc(OCc3cn(Cc4ccc(C(=O)O)cc4)nn3)cc(C(=O)Nc3cc(OCCN)c4ccccc4n3)n2)nc2ccccc12	c-kit2 G-quadruplex DNA	FRET melting		1 µM, pH 7.4, together with: 60 mM potassium		ΔTm	9.2 ± 0.5 K
Cc1cn(CC(=O)N(CC(=O)N[C@H]2COC[C@@H]2N(CC(=O)NCCOCCOCC(N)=O)C(=O)Cn2cnc3c(N)ncnc32)[C@H]2COC[C@@H]2NC(=O)CN(C(=O)Cn2cnc3c(N)ncnc32)[C@H]2COC[C@@H]2NC(=O)CN(C(=O)Cn2cnc3c(=O)[nH]c(N)nc32)[C@H]2COC[C@@H]2NC(=O)CN(C(=O)Cn2cc(C)c(=O)[nH]c2=O)[C@H]2COC[C@@H]2NC(=O)CN(C(=O)Cn2cnc3c(=O)[nH]c(N)nc32)[C@H]2COC[C@@H]2NC(=O)CN(C(=O)Cn2cc(C)c(=O)[nH]c2=O)[C@H]2COC[C@@H]2NC(=O)CN(C(=O)Cn2cnc3c(N)ncnc32)[C@H]2COC[C@@H]2NC(=O)CN(C(=O)Cn2cnc3c(=O)[nH]c(N)nc32)[C@H]2COC[C@@H]2N)c(=O)[nH]c1=O	mismatched RNA TC	duplex formation, UV melting			baseline: complementary RNA	ΔTm	-19.4 °C
Cn1ccc2cc(-n3c(=O)[nH]c4sc5c(c4c3=O)CCCC5)ccc21	rat sodium channel	radioligand binding		10 µM, site 2		inhibition	21%
Cn1cc(-c2cc(N3CCCCS3(=O)=O)ccc2N[C@H]2CC[C@H](C)CC2)c2cc[nH]c2c1=O (stereo in doubt)	TRIM33 PHD-bromodomain (human)	bromodomain binding, competition binding		1 µM	baseline: control	remaining binding	100%
O=C1c2sc(-c3ccc(N4CCC(F)C4)nc3F)nc2CCN1c1cccnc1 (stereo not shown)	TDP-43 (human)	CFTR exon splicing	SH-SY5Y	1 µM, TDP-43-controlled CFTR minigene		exon inclusion	48.7% and 45% and 42.1% and 48.4%
Nc1ncc(-c2cc(-c3cnn(CC(F)(F)F)c3)ncc2F)nc1C(=O)NC1CNCC(F)C1 (stereo not shown)	BIKE	KINOMEscan competition binding		1 µM	baseline: DMSO control	remaining binding	51%
C=CC(=O)N1[C@@H](c2ccc3c(c2)OCO3)c2[nH]c3ccccc3c2C[C@H]1C(=O)N1CCN(C)CC1	human cyclin E1 wild type-3xFLAG:CDK2	co-IP with TMT proteomics, refers to: CDKN1A		concentration not given, P38936	baseline: wild type DMSO	relative co-enrichment	115%
CCC(=O)N(C)c1ccc(Cl)c(Cl)c1	central benzodiazepine receptor	radioligand binding		10 µM		inhibition	< 10%
COc1ccc(C(=O)Nc2c(-c3cccs3)nc3ccccn23)cc1	sigma receptor 1	binding		10 µM		inhibition	< 50%
O=C(O)c1ccc(Nc2c(-c3ccc(CON=Cc4cccc(NC(=O)c5ccc(Cl)cc5)c4)cc3)nc3cc(-c4ccccc4)ccn23)cc1	TDP1	enzyme activity, inhibitor		100 µM, unpurified compound		inhibition	63.5%
C=CC(=O)N1CCc2ccc(-n3c(=O)ccc4cnc5ccc(-c6cnn(C)c6)cc5c43)cc21	FLT3 ITD, human	KINOMEscan		1 µM	baseline: control	remaining binding	92%
NCCOc1cc(NC(=O)c2cc(OCc3cn([C@H]4O[C@@H](CO)[C@H](O)[C@@H](O)[C@@H]4O)nn3)cc(C(=O)Nc3cc(OCCN)c4ccccc4n3)n2)nc2ccccc12	c-kit2 G-quadruplex DNA	FRET melting		1 µM, pH 7.4, together with: 60 mM potassium		ΔTm	13.2 ± 0.3 K
C=CC(=O)Nc1cccc(Cn2ncc3cnc(Nc4cnn(CCOC)c4)nc32)c1	PRKCD human	binding, KINOMEscan		100 nM	lower = stronger binding	percent of control	100%
c1ccc(-c2n[nH]cc2-c2ccnc3ccccc23)nc1	FUN31 (Candida albicans)	kinase binding, MIB/MS competition	Candida albicans lysate	10 µM	baseline: DMSO	log2 fold change	0.02
Cc1cn(CC(=O)N(CC(=O)N[C@H]2CCC[C@@H]2N(CC(=O)N[C@H]2COC[C@@H]2N(CC(=O)N[C@H]2COC[C@@H]2N(CC(=O)N[C@H]2COC[C@@H]2N(CC(=O)NCCOCCOCC(N)=O)C(=O)Cn2cnc3c(N)ncnc32)C(=O)Cn2cc(C)c(=O)[nH]c2=O)C(=O)Cn2cnc3c(N)ncnc32)C(=O)Cn2cnc3c(=O)[nH]c(N)nc32)[C@H]2CCC[C@@H]2NC(=O)CN(C(=O)Cn2cnc3c(=O)[nH]c(N)nc32)[C@H]2CCC[C@@H]2NC(=O)CN(C(=O)Cn2cc(C)c(=O)[nH]c2=O)[C@H]2COC[C@@H]2NC(=O)CN(C(=O)Cn2cnc3c(N)ncnc32)[C@H]2COC[C@@H]2NC(=O)CN(C(=O)Cn2cnc3c(=O)[nH]c(N)nc32)[C@H]2COC[C@@H]2N)c(=O)[nH]c1=O	mismatched RNA TC	duplex formation, UV melting			baseline: complementary RNA	ΔTm	-21.7 °C
NCCOc1cc(NC(=O)c2cc(Cl)cc(C(=O)Nc3cc(OCCN)c4ccccc4n3)n2)nc2ccccc12	c-kit2 G-quadruplex DNA	FRET melting		1 µM, pH 7.4, together with: 60 mM potassium		ΔTm	14.4 ± 0.6 K
COc1ccccc1N1Cc2ccc(OC)c(OC)c2C1=O	Uncharacterized protein (Trypanosoma brucei brucei, UniProt Q386Q8)	inhibitor, coupled colorimetric	Trypanosoma brucei			IC50	> 100 µM
CNC(=O)C1CCN(c2cc(C)c(F)cc2NC(=O)c2ccc(-c3cc(O)ccc3C)c(C)c2)CC1	FLT3 ITD F691L (human)	binding, KINOMEscan		1000 nM		percent of control	74%
N[C@H]1CC[C@H](Nc2nccc(-c3cccnc3Oc3ccc(NC(=O)NC4CC4)c4ccccc34)n2)CC1	CSNK2A1/CSNK2A3 (human)	kinobead competition pulldown	HEK293/HCT116 lysate mixture	10 µM, 1 h, 4 °C	lower = stronger competition	log2 LFQ intensity	31.8 and 31.7
CC(=O)c1cnc(N)nc1N1CC[C@H]1c1nn2ccc(Cl)c2c(=O)n1-c1ccccc1	PI3Kγ	KiNativ	monkey white blood cell lysate	1 µM		binding	93.3%
O=C(O)c1ccc(Nc2c(-c3ccc(CON=Cc4cccc(Oc5ncccn5)c4)cc3)nc3cc(-c4ccccc4)ccn23)cc1 (mixture of isomers)	TDP1	enzyme activity, inhibitor		100 µM, unpurified compound		inhibition	67.4%
Cc1nc(N)nc2c1C(=O)N[C@@H](c1ccc(F)cc1-c1cccc(OCCF)n1)C2	Hsp90	in vitro autoradiography	U87 tumour slice	11 kBq/mL, room temperature, together with: blocker 10 µM		blocking	96 ± 0.3%

Some of these lines once more:
Compound	target	assay	test system	conditions	scale	endpoint	value
CNC(=O)C1CCN(c2cc(C)c(F)cc2NC(=O)c2ccc(-c3cc(O)ccc3C)c(C)c2)CC1	FLT3 ITD F691L (human)	binding, KINOMEscan		1000 nM		percent of control	74%
